Experimental data from different studies.
Lines come from different studies, so protocols differ. ± marks the error that the study gave.
CYP2B6: Cytochrome P450 2B6 (CYP2B6, Homo sapiens, UniProt P20813)
UniProt P20813, sequence (whole entry, looked up): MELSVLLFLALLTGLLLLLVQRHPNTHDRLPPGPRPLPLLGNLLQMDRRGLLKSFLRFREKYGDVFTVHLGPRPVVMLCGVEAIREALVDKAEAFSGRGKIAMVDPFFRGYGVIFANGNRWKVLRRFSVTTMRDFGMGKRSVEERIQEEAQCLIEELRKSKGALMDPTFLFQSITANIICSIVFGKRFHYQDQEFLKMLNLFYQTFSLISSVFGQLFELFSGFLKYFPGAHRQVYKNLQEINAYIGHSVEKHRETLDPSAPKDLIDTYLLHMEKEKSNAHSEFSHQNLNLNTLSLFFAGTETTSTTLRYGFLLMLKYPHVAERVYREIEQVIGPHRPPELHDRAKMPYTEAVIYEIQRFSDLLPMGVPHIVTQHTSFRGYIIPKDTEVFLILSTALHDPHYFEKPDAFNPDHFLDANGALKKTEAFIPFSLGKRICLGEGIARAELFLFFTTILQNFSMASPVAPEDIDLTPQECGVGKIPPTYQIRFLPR
UniProt A0A109QYD3, sequence (whole entry, looked up): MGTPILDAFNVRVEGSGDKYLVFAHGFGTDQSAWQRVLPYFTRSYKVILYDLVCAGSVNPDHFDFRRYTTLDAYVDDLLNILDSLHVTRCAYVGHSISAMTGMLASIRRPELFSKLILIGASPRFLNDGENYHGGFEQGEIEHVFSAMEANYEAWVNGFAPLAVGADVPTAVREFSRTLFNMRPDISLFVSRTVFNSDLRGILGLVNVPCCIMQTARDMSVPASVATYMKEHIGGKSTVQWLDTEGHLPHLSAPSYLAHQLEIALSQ
UniProt C0LGQ5, sequence (whole entry, looked up): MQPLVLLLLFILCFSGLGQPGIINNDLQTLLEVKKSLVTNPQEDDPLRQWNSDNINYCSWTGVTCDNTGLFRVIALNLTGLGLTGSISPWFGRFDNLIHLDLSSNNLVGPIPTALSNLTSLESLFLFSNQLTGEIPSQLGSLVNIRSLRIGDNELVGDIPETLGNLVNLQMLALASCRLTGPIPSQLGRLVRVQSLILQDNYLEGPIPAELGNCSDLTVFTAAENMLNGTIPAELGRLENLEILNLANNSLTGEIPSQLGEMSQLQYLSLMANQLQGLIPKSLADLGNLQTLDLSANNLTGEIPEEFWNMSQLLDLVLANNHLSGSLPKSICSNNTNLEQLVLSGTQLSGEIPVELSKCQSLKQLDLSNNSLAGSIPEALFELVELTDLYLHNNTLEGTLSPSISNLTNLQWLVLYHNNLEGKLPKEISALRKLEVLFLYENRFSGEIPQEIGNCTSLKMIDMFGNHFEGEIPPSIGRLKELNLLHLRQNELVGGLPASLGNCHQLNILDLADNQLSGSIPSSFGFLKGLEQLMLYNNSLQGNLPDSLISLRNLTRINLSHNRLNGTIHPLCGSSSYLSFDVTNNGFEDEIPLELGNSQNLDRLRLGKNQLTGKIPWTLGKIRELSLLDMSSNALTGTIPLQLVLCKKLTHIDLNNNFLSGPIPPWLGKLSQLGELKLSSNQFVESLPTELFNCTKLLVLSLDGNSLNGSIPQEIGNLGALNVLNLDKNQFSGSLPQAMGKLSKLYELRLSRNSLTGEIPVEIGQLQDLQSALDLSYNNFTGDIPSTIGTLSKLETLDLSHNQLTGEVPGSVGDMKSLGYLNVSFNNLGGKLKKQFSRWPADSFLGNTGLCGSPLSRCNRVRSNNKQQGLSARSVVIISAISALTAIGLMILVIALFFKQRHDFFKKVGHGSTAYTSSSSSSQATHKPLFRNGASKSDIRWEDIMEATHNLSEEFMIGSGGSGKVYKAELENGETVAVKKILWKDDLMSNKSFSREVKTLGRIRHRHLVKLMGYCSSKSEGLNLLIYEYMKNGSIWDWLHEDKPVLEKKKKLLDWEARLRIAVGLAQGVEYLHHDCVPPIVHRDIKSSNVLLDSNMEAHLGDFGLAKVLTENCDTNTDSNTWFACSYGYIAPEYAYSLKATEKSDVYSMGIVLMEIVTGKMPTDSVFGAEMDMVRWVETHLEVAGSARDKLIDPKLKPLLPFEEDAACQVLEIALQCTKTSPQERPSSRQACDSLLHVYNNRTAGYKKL
UniProt P22629, sequence (whole entry, looked up): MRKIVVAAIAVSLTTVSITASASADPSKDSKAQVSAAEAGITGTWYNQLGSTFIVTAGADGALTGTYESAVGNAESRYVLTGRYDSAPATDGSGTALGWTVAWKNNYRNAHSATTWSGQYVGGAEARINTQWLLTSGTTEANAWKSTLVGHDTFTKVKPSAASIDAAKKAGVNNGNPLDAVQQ
UniProt P22607, sequence (whole entry, looked up): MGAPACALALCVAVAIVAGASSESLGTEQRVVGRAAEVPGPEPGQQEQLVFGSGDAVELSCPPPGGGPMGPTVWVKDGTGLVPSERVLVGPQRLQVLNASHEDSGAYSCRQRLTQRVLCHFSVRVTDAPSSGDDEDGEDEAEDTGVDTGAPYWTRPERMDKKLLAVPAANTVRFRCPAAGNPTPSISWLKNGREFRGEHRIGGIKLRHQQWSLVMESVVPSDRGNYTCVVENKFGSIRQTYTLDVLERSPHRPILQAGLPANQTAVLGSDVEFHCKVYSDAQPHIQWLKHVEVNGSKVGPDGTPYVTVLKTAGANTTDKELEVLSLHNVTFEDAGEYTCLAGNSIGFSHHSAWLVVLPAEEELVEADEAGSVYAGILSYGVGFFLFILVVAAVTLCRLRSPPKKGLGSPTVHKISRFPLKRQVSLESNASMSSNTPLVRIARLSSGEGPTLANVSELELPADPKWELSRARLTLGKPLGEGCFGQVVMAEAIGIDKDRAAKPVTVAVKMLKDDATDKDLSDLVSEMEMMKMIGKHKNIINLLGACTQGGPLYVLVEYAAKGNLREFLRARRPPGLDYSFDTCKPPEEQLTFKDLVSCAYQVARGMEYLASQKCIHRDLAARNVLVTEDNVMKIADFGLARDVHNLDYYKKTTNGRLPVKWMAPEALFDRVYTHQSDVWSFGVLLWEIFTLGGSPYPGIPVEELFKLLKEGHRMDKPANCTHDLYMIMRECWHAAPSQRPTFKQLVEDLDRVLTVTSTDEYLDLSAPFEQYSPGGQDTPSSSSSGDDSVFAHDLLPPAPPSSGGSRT
UniProt P27467, sequence (whole entry, looked up): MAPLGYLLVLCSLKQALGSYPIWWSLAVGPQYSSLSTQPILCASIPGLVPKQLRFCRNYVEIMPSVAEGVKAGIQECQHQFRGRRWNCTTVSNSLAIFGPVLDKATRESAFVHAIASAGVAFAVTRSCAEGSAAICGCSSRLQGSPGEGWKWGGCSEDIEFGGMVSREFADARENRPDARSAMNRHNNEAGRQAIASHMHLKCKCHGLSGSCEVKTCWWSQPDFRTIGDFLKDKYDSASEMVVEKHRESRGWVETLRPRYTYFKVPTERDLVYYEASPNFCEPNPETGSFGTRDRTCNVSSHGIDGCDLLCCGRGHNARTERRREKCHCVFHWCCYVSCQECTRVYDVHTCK
UniProt P26038, sequence (whole entry, looked up): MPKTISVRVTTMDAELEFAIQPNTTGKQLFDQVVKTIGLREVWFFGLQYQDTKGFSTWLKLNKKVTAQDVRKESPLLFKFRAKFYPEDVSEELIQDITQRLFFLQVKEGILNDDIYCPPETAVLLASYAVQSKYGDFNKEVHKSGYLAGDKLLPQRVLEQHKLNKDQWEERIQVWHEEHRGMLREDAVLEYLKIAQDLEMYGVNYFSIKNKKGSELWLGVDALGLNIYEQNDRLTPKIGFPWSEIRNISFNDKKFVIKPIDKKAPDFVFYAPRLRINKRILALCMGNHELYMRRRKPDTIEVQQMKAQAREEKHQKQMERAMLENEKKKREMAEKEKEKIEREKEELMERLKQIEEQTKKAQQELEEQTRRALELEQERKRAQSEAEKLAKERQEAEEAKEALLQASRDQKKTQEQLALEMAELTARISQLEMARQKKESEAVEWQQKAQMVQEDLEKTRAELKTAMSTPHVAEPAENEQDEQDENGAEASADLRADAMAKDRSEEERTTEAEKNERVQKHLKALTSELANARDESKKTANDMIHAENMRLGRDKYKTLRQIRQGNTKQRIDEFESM
UniProt P31224, sequence (whole entry, looked up): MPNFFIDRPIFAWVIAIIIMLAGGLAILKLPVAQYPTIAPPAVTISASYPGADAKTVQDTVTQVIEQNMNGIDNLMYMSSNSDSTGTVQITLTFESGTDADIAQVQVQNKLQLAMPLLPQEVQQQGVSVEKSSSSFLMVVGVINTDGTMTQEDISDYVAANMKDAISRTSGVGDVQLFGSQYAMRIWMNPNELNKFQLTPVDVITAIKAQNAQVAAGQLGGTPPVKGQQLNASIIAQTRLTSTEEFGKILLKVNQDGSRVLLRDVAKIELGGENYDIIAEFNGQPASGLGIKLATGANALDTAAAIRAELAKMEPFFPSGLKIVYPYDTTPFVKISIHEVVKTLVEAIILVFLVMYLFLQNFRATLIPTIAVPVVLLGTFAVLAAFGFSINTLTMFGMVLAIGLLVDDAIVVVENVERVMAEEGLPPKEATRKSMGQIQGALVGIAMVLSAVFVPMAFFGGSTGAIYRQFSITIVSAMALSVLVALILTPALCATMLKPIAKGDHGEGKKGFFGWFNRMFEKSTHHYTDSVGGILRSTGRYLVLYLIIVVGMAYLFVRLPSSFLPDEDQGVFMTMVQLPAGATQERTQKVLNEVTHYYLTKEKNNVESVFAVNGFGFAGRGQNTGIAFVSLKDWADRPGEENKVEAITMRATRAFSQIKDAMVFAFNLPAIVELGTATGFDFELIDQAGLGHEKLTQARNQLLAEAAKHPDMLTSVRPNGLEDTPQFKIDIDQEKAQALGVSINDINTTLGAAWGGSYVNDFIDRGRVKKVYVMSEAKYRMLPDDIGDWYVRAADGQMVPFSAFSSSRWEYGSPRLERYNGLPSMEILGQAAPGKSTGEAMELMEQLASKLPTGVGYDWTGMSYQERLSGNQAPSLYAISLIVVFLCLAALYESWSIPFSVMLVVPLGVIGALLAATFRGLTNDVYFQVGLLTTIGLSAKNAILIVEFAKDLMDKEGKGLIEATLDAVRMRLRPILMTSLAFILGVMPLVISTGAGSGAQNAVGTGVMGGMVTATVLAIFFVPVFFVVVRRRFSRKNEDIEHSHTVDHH

Compound | tested on | assay | test system | conditions | how to read | quantity | value
CSCC[C@H](NC(C)=O)C(=O)N[C@H]1CSCc2cc3cc(c2)CSC[C@@H](C(=O)N[C@H](C(=O)N[C@@H](C)C(=O)N[C@@H](Cc2ccc(O)cc2)C(=O)N[C@@H](CCCCN)C(=O)N[C@@H](Cc2ccc(O)cc2)C(=O)NCC(=O)N[C@@H](CO)C(=O)NCC(=O)N[C@@H](CO)C(=O)NCC(=O)N[C@@H](CO)C(=O)N[C@@H](CC(=O)O)C(=O)N[C@@H](Cc2ccc(O)cc2)C(=O)N[C@@H](CCCCN)C(=O)N[C@@H](CC(=O)O)C(=O)N[C@@H](CC(=O)O)C(=O)N[C@@H](CC(=O)O)C(=O)N[C@@H](CC(=O)O)C(=O)N[C@@H](CCCCN)C(N)=O)[C@@H](C)O)NC(=O)[C@H](Cc2ccccc2)NC(=O)[C@H](CCCCN)NC(=O)[C@H](CSC3)NC(=O)[C@H](Cc2ccccc2)NC(=O)[C@H](CC(N)=O)NC(=O)[C@H](CC(C)C)NC(=O)[C@H]([C@@H](C)O)NC1=O | FGFR3 (Homo sapiens, UniProt P22607) | binding, BLI | – | – | – | Kd | 0.0067 µM
N=C(N)NCCC[C@@H]1NC(=O)[C@H](CCCCNC(=O)CC[C@H](NC(=O)CCOCCOCCOCCOCCNC(=O)CC[C@H](NC(=O)CN2CCN(CC(=O)O)CCN(CC(=O)O)CCN(CC(=O)O)CC2)C(=O)NCCOCCOCCOCCOCCC(=O)N[C@@H](CCC(=O)NCCCC[C@@H]2NC(=O)[C@@H](Cc3ccccc3)NC(=O)[C@H](CC(=O)O)NC(=O)CNC(=O)[C@H](CCCNC(=N)N)NC2=O)C(=O)NCCCC[C@@H]2NC(=O)[C@@H](Cc3ccccc3)NC(=O)[C@H](CC(=O)O)NC(=O)CNC(=O)[C@H](CCCNC(=N)N)NC2=O)C(=O)NCCCC[C@@H]2NC(=O)[C@@H](Cc3ccccc3)NC(=O)[C@H](CC(=O)O)NC(=O)CNC(=O)[C@H](CCCNC(=N)N)NC2=O)NC(=O)[C@@H](Cc2ccccc2)NC(=O)[C@H](CC(=O)O)NC(=O)CNC1=O [indium-111 labelled] | – | – | female athymic nude mice, eyes | intravenous, 3 µCi, 24 h, U-87 MG glioma xenograft | – | tissue uptake | 0.39 ± 0.12 %ID/g
CC(C)C[C@@H]1NC(=O)[C@H](C(C)C)NC(=O)[C@H](CC(C)C)NC(=O)[C@H](C(C)C)NC(=O)[C@H](Cc2ccccc2)NC(=O)[C@H](C(C)C)NC(=O)[C@H](CCCNC(=N)N)NC(=O)[C@H](CCCNC(=N)N)NC(=O)[C@H](CC(N)=O)NC(=O)[C@@H]2CCCN2C(=O)[C@H](C(C)C)NC(=O)[C@H](CCCNC(=N)N)NC(=O)[C@H](Cc2ccc(O)cc2)NC(=O)[C@H](CC(C)C)NC(=O)[C@@H](Cc2ccc(O)cc2)NC(=O)CSC[C@@H](C(=O)NCC(N)=O)NC1=O | Protein Wnt-3a, with afamin (Mus musculus, UniProt P27467) | binding, SPR single cycle kinetics | immobilised mWnt3a–human afamin complex | 25 °C | – | Kd | 0.318 µM
CC[C@H](C)[C@H](NC(=O)[C@H](CC(C)C)NC(=O)[C@H](CCCCN)NC(=O)[C@H](Cc1ccccc1)NC(=O)[C@@H]1CCCN1C(=O)[C@@H]1CCCN1C(=O)[C@H](CCCNC(=N)N)NC(=O)[C@@H](NC(=O)[C@H](CC(C)C)NC(=O)[C@H](CCCCN)NC(=O)[C@@H]1CCCN1C(=O)[C@H](CCCCN)NC(=O)[C@@H]1CCCN1C(=O)[C@H](CO)NC(=O)[C@H](CO)NC(=O)[C@H](Cc1c[nH]cn1)NC(=O)CNC(=O)[C@H](Cc1ccc(OS(=O)(=O)O)cc1)NC(=O)[C@@H](N)CC(=O)O)C(C)C)C(=O)N1CCC[C@H]1C(=O)N[C@@H](CC(N)=O)C(=O)O | LRR receptor-like serine/threonine-protein kinase GSO1, ectodomain (GSO1, Arabidopsis thaliana, UniProt C0LGQ5) | isothermal titration calorimetry | ectodomain | pH 5.0, 25 °C | – | Kd | ~0.04 µM
CC[C@H](C)[C@H](NC(=O)[C@H](Cc1ccc(O)cc1)NC(=O)[C@H](CCC(=O)O)NC(=O)[C@H](Cc1c[nH]c2ccccc12)NC(=O)[C@H](CO)NC(=O)[C@H](CO)NC(=O)CNC(=O)CNC(=O)[C@H](CC(=O)O)NC(=O)[C@@H](N)CCC(=O)O)C(=O)N[C@@H](Cc1c[nH]c2ccccc12)C(=O)N[C@H](C(=O)N[C@@H](CC(C)C)C(=O)N1CCC[C@H]1C(=O)N[C@@H](CO)C(=O)NCC(=O)O)[C@@H](C)O | Moesin (Homo sapiens, UniProt P26038) | binding, ITC | – | – | – | Kd | ~0.045 µM
C[C@@H](O)[C@@H]1NC(=O)[C@H](CC(=O)O)NC(=O)CNC(=O)[C@H](CCC(N)=O)NC(=O)[C@@H]2CCCN2C(=O)[C@H](Cc2cnc[nH]2)NC(=O)[C@@H](N)CSSC[C@@H](C(=O)NCC(N)=O)NC1=O | Streptavidin (Streptomyces avidinii, UniProt P22629) | – | – | – | – | Kd | 20.7 µM
CC[C@H](C)[C@H](NC(=O)[C@H](CCCNC(=N)N)NC(=O)[C@H](CCCNC(=N)N)NC(=O)[C@@H]1CSSC[C@H](NC(=O)[C@H](C)NC(=O)[C@@H](NC(=O)[C@@H](NC(=O)[C@@H]2CCCN2C(=O)[C@@H](NC(=O)[C@@H]2CCCN2C(=O)[C@H](CCCCN)NC(=O)[C@H](CO)NC(=O)CN)C(C)C)[C@@H](C)CC)[C@@H](C)CC)C(=O)N[C@@H](CC(N)=O)C(=O)N[C@@H](CCCNC(=N)N)C(=O)N[C@@H](CCCCN)C(=O)N[C@@H]([C@@H](C)O)C(=O)NCC(=O)N[C@@H](CCCCN)C(=O)N1)C(=O)O | lptA (Escherichia coli, UniProt P0ADV1) | binding, BLI | – | – | – | Kd | 0.0008 µM
CC[C@H](C)[C@H](NC(=O)CN)C(=O)NCC(=O)N[C@@H](CC(=O)O)C(=O)N1CCC[C@H]1C(=O)N[C@H](C(=O)N[C@H](C(=O)N[C@H]1CSSC[C@@H]2NC(=O)[C@H](CCCCN)NC(=O)[C@H]([C@@H](C)O)NC(=O)CNC(=O)[C@@H]3CCCN3C(=O)[C@H](CC(C)C)NC(=O)CNC(=O)[C@@H]3CSSC[C@H](NC(=O)[C@H]([C@@H](C)CC)NC(=O)[C@H](C)NC(=O)CNC(=O)[C@H](CO)NC(=O)[C@H](CCCCN)NC(=O)[C@H](CC(C)C)NC1=O)C(=O)N[C@@H](Cc1c[nH]cn1)C(=O)N1CCC[C@H]1C(=O)N[C@@H](C(C)C)C(=O)N[C@@H](Cc1ccccc1)C(=O)N[C@@H](CSSC[C@@H](C(=O)N[C@@H](CCCCN)C(=O)N[C@@H](CCCCN)C(=O)N1CCC[C@H]1C(=O)O)NC2=O)C(=O)N1CCC[C@H]1C(=O)N[C@@H](CCCNC(=N)N)C(=O)N[C@@H](CCCNC(=N)N)C(=O)N[C@@H](Cc1ccc(O)cc1)C(=O)N[C@@H](CCCCN)C(=O)N[C@@H](CCC(N)=O)C(=O)N[C@@H]([C@@H](C)CC)C(=O)NCC(=O)N[C@@H]([C@@H](C)O)C(=O)N3)[C@@H](C)O)C(C)C | sapA (Haemophilus influenzae, UniProt Q4QL73) | binding, SPR | – | pH 7.5, 25 °C, together with: immobilised full-length defensin | – | Kd | 0.0175 µM
CC1=C(C)[C@@H](Oc2c(F)cc3c(C)cc(=O)oc3c2F)OC1=O | RMS3 (Lathyrus oleraceus, UniProt A0A109QYD3) | binding, fluorescence | – | – | – | Kd | 581 µM
CCCCCc1cc(O)c2c(c1)OC(C)(C)C1CCC(CO)=CC21 (stereo not shown) | CYP2B6 | inhibitor | human, pooled liver microsomes | pH 7.4, together with: bupropion | – | IC50 | 0.77 ± 0.35 µM
C[C@@H](NC(=O)[C@@H](CCC(N)=O)NC(=O)[C@@H](C)NC(=O)[C@@H](CCCCN)NC(=O)[C@@H](CCC(N)=O)NC(=O)[C@@H](C)NC(=O)[C@@H](CCCCN)NC(=O)[C@@H](CCC(N)=O)NC(=O)[C@@H](C)NC(=O)[C@@H](CCC(N)=O)NC(=O)[C@@H](CCCCN)NC(=O)[C@@H](C)NC(=O)[C@@H](CCC(N)=O)NC(=O)[C@@H](CCCCN)NC(=O)[C@@H](C)NC(=O)[C@@H](CCC(N)=O)NC(=O)[C@@H](C)NC(=O)[C@@H](CCCCN)NC(=O)[C@@H](CCC(N)=O)NC(=O)[C@@H](C)NC(=O)[C@@H](CCCCN)NC(=O)[C@@H](CO)NC(=O)[C@@H](Cc1ccc(O)cc1)NC(=O)CNC(=O)CNC(=O)CN)C(=O)N[C@H](CCCCN)C(=O)N[C@H](CCC(N)=O)C(=O)N[C@H](C)C(=O)N[C@H](CCCCN)C(=O)N[C@H](CCC(N)=O)C(=O)O | – | binding, SPR two-state model | rVλ6Wil fibrils | – | – | Kd | 0.022 µM
O=C(O)[C@]1(O)C[C@@H](O)[C@@H](O)[C@H](O)C1 | aroD (Salmonella typhimurium, UniProt P58687, K170M) | binding | Salmonella enterica | – | – | Kd | 224 µM
Nc1ncnc2c1ncn2[C@@H]1O[C@@H]2CO[P@@](O)(=S)O[C@H]2[C@H]1O | PRKAR1A (Bos taurus, UniProt P00514, R210K) | binding, NMR | – | – | – | Kd | 24 µM
N=C(N)NCCC[C@@H]1NC(=O)[C@H](CCCCNC(=O)CCOCCOCCOCCOCCNC(=O)CC[C@H](NC(=O)CCOCCOCCOCCOCCNC(=O)CC[C@H](NC(=O)CN2CCN(CC(=O)O)CCN(CC(=O)O)CCN(CC(=O)O)CC2)C(=O)NCCOCCOCCOCCOCCC(=O)N[C@@H](CCC(=O)NCCOCCOCCOCCOCCC(=O)NCCCC[C@@H]2NC(=O)[C@@H](Cc3ccccc3)NC(=O)[C@H](CC(=O)O)NC(=O)CNC(=O)[C@H](CCCNC(=N)N)NC2=O)C(=O)NCCOCCOCCOCCOCCC(=O)NCCCC[C@@H]2NC(=O)[C@@H](Cc3ccccc3)NC(=O)[C@H](CC(=O)O)NC(=O)CNC(=O)[C@H](CCCNC(=N)N)NC2=O)C(=O)NCCOCCOCCOCCOCCC(=O)NCCCC[C@@H]2NC(=O)[C@@H](Cc3ccccc3)NC(=O)[C@H](CC(=O)O)NC(=O)CNC(=O)[C@H](CCCNC(=N)N)NC2=O)NC(=O)[C@@H](Cc2ccccc2)NC(=O)[C@H](CC(=O)O)NC(=O)CNC1=O [indium-111 labelled] | – | – | athymic nude mice, female, U-87 MG glioma xenograft, tumour and blood | intravenous, 4 h | relative to: tumour over blood | tumour to tissue ratio | 42.1 ± 16
CCCCCc1cc(O)c2c(c1)OC(C)(C)C1CCC(C)=CC21 (single isomer, unassigned; (-)) | CYP2B6 | enzyme activity, inhibitor | human, liver microsomes | pH 7.4 | – | Ki | 7.5 µM
Cc1cc(N)c2cc(NC(=O)c3ccc4c(-c5ccccc5O)cccc4c3)ccc2n1 | acrB (Escherichia coli, UniProt P31224) | binding, SPR | – | – | – | Kd | 4920 µM

A few entries again:
Compound | tested on | assay | test system | conditions | how to read | quantity | value
CC1=C(C)[C@@H](Oc2c(F)cc3c(C)cc(=O)oc3c2F)OC1=O | RMS3 (Lathyrus oleraceus, UniProt A0A109QYD3) | binding, fluorescence | – | – | – | Kd | 581 µM
CCCCCc1cc(O)c2c(c1)OC(C)(C)C1CCC(CO)=CC21 (stereo not shown) | CYP2B6 | inhibitor | human, pooled liver microsomes | pH 7.4, together with: bupropion | – | IC50 | 0.77 ± 0.35 µM
